Published values from different studies.
Compare with care: the assays were run in different laboratories. Numbers after ± are the reported error.
Formate-nitrite transporter: Formate-nitrite transporter (Plasmodium falciparum, UniProt O77389)
UniProt O77389, sequence (whole entry, looked up): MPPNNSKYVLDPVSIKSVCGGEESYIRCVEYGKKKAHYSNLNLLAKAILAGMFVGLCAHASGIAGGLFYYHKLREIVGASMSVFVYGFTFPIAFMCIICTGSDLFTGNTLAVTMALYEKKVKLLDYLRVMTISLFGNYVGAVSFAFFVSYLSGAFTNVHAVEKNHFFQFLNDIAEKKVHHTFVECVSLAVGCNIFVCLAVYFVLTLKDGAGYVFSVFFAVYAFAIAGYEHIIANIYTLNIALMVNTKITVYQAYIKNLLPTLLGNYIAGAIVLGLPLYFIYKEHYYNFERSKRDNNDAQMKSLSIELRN
blaNDM-1: Metallo-beta-lactamase type 2 (blaNDM-1, Klebsiella pneumoniae, UniProt C7C422)
UniProt C7C422, sequence (whole entry, looked up): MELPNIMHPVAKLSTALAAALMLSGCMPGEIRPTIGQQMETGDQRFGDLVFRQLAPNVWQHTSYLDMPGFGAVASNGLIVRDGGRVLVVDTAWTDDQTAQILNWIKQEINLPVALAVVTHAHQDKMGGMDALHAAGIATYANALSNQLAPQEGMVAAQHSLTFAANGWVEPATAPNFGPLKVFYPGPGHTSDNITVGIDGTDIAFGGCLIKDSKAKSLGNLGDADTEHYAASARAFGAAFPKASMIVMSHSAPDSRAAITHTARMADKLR
SIRT5: NAD-dependent protein deacylase sirtuin-5, mitochondrial (SIRT5, Homo sapiens, UniProt Q9NXA8)
UniProt Q9NXA8, sequence (whole entry, looked up): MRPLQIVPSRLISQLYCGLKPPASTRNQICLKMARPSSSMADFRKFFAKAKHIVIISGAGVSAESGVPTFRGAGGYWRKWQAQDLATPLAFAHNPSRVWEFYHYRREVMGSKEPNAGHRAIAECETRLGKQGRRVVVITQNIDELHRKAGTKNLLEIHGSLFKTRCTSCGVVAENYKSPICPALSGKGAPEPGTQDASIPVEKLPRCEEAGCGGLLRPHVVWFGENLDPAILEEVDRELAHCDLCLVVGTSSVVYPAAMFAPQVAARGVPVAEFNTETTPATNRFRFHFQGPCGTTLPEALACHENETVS
lasR: Transcriptional activator protein LasR (lasR, Pseudomonas aeruginosa, UniProt P25084)
UniProt P25084, sequence (whole entry, looked up): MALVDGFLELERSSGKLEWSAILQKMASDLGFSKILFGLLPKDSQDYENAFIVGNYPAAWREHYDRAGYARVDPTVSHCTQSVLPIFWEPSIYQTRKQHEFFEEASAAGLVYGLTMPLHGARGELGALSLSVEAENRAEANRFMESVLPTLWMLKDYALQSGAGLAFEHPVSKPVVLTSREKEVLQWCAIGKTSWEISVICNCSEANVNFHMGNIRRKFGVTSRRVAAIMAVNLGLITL
SIRT2: NAD-dependent protein deacetylase sirtuin-2 (SIRT2, Homo sapiens, UniProt Q8IXJ6)
UniProt Q8IXJ6, sequence (whole entry, looked up): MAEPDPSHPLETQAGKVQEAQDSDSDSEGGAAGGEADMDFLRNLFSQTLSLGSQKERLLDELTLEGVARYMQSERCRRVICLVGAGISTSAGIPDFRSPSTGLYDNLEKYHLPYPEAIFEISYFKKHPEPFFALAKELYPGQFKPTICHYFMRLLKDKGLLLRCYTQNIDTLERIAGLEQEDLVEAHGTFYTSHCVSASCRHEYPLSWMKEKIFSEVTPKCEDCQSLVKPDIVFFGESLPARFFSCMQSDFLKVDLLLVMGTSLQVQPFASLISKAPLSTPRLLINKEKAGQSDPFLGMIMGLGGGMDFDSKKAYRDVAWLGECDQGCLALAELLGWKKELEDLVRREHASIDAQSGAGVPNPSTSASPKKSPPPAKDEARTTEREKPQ
UniProt P21397, sequence (whole entry, looked up): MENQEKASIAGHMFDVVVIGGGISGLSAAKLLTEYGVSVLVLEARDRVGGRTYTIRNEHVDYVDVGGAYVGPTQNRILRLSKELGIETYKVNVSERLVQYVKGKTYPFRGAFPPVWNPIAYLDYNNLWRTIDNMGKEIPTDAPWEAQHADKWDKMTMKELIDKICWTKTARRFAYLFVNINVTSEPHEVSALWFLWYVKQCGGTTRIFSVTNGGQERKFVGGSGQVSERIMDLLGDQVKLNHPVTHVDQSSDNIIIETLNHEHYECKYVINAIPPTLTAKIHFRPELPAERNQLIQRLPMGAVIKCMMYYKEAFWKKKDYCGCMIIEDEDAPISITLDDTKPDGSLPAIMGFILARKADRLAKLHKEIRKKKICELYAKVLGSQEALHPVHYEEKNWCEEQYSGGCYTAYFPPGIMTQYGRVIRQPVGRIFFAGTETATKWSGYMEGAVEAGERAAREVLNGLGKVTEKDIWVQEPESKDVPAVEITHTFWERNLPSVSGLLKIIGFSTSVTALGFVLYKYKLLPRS
UniProt P37288, sequence (whole entry, looked up): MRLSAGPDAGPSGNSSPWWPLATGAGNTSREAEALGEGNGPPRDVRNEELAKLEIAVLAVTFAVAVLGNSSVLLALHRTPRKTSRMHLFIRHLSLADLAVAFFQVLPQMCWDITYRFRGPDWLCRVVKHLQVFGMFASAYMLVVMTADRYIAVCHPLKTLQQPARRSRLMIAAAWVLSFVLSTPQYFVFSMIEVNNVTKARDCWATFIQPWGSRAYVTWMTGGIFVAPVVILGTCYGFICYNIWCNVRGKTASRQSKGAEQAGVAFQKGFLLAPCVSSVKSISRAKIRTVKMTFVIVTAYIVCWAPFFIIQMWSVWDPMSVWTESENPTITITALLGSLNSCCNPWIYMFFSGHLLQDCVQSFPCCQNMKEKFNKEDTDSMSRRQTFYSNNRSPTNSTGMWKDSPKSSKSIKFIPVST
UniProt P40261, sequence (whole entry, looked up): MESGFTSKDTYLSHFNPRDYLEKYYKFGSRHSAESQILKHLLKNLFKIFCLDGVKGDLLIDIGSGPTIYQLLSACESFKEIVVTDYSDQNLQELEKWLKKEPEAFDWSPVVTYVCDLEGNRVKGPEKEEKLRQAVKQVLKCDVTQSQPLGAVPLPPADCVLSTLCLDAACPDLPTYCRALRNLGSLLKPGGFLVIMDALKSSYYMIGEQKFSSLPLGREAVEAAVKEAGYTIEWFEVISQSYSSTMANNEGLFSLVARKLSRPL
UniProt Q9QUR6, sequence (whole entry, looked up): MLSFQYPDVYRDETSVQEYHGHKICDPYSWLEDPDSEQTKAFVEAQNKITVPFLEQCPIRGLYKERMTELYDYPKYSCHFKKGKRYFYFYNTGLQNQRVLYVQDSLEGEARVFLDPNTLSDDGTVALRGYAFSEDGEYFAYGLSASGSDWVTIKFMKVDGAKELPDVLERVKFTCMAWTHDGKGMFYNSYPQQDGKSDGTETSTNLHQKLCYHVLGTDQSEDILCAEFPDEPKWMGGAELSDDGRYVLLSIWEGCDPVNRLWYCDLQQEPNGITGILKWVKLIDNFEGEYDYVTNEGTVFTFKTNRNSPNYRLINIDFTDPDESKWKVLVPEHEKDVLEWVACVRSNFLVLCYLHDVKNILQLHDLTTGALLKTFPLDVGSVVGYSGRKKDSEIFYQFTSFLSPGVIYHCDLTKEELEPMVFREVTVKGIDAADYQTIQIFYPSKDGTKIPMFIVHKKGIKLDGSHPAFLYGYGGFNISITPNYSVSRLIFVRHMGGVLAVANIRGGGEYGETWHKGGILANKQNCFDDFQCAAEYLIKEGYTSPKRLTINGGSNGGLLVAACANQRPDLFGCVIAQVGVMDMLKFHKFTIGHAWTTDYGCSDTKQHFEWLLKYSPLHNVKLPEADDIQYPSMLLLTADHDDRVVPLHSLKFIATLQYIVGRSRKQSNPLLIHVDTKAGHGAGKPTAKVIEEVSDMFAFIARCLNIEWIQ
UniProt P55212, sequence (whole entry, looked up): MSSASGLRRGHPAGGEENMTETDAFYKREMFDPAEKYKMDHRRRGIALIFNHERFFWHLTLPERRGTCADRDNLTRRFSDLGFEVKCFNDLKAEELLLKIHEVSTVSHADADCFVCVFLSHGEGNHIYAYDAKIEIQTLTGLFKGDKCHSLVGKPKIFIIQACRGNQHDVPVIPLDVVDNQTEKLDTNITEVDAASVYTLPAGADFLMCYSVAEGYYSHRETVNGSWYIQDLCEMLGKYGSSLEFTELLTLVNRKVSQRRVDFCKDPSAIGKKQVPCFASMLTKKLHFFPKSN
UniProt P61073, sequence (whole entry, looked up): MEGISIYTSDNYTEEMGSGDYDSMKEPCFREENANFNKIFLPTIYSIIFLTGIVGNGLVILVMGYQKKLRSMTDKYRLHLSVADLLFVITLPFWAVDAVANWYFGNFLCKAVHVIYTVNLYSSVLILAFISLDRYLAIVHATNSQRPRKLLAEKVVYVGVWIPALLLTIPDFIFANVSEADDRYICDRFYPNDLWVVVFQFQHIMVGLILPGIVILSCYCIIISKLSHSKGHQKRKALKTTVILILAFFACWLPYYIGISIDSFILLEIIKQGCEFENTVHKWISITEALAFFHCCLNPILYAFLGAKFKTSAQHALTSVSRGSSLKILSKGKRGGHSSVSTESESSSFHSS
UniProt P33261, sequence (whole entry, looked up): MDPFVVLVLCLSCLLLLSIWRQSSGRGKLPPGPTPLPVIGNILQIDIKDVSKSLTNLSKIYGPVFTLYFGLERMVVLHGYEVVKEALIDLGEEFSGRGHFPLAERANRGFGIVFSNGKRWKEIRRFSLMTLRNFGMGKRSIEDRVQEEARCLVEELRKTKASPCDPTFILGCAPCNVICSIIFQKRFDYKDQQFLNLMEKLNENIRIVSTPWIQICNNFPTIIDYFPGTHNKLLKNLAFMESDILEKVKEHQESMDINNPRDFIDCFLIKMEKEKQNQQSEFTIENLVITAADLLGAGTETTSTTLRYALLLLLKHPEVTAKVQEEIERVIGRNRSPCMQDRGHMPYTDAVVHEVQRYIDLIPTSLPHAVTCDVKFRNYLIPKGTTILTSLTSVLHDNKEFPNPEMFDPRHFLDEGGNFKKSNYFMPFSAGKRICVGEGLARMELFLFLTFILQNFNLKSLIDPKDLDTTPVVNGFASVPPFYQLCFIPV
UniProt Q2FDS6, sequence (whole entry, looked up): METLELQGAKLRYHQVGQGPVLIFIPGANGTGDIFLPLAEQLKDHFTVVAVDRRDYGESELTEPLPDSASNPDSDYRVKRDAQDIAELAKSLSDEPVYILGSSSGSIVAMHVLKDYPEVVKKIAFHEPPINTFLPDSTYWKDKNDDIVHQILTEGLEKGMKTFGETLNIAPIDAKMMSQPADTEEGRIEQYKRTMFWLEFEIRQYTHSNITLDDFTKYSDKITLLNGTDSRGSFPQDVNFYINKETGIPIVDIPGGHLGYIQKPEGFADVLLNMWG

O=C(C=C(O)C(F)(F)C(F)(F)F)c1ccc(NCC(F)(F)F)nc1 — IC50 (Formate-nitrite transporter; L-lactate transport, inhibitor, fluorescence; yeast; pH 6.8, together with: L-lactate 1 mM): 0.215 ± 0.039 µM
CC(C)C[C@@H]1NC(=O)[C@@H]2CCCN2C(=O)[C@@H](CS)NC(=O)[C@H](Cc2ccc(O)cc2)NC(=O)[C@@H](CCCNC(=N)N)NC(=O)[C@@H]([C@H](C)O)NC(=O)[C@H](CCC(=O)O)NC(=O)[C@@H]2CCCN2C1=O — IC50 (blaNDM-1; enzyme activity, inhibitor, absorbance): 18.8 µM
Cc1ccc(CNC(=O)c2ccn3c(-c4ccc(C#N)cc4)cnc3c2)cn1 — IC50 (Cytochrome P450 2C9 (CYP2C9, Homo sapiens, UniProt P11712); enzyme activity, inhibitor): > 10 µM
CC(=O)Nc1ccc(C(=O)C=C(O)C(F)(F)C(F)(F)F)cn1 — IC50 (Formate-nitrite transporter; L-lactate transport, inhibitor, fluorescence; yeast; pH 6.8, together with: L-lactate 1 mM): 0.25 ± 0.02 µM
CCCC[C@@H]1NC(=O)[C@@H](CCC(N)=O)NC(=O)[C@H]2CCCN2C(=O)[C@H](Cc2c[nH]c3ccccc23)NC(=O)[C@@H]2C[C@@H](O)CN2C(=O)[C@H](Cc2ccccc2CN)NC(=O)[C@@H]2CCCN2C(=O)[C@@H](CS)NC1=O — IC50 (blaNDM-1; enzyme activity, inhibitor, absorbance): 27.9 µM
O=C(O)CCn1c(=O)oc2cc(Cl)c(Cl)cc21 — IC50 (AVPR1A (Homo sapiens, UniProt P37288); antagonist; median value): > 50.1 µM
C#CCNC(=O)c1ccc(S(=O)(=O)N[C@@H](CCCCNC(=O)c2cc(OS(=O)(=O)F)c3ccccc3c2O)C(=O)N[C@@H](Cc2c[nH]c3ccccc23)C(=O)NC2CCC2)cc1 — IC50 (SIRT5; inhibitor, fluorogenic; 0 h preincubation, His-tagged enzyme 150 nM, together with: NAD+ 500 µM): 28.9 ± 11.7 µM
CC(C)(C)C1CCC(c2cc3ccccc3s2)(N2CCCCC2)CC1 (stereo not drawn) — IC50 (Uncharacterized protein (Trypanosoma brucei brucei, UniProt Q386Q8); enzyme activity, inhibitor, coupled colorimetric; together with: E. coli pyrophosphatase coupling): 78 µM
O=C(C=C(O)C(F)(F)C(F)(F)F)c1ccc(NC2CCC2)nc1 — IC50 (Formate-nitrite transporter; L-lactate transport, inhibitor, fluorescence; yeast; pH 6.8, together with: L-lactate 1 mM): 0.221 ± 0.028 µM
O=C(CCCCCCCCCN=C=S)CC(=O)N[C@H]1CCOC1=O — IC50 (lasR; plasI-LVAgfp reporter, antagonist; PAO-JP2 pump-active; together with: OdDHL 150 nM): no inhibition
CNC(=S)NCCCC[C@H](NS(=O)(=O)c1ccc(C(=O)NCc2cn(CCCNc3ccc([N+](=O)[O-])c4nonc34)nn2)cc1)C(=O)N[C@@H](CCCNC(=N)N)C(=O)N[C@@H](CC1CCCCC1)C(=O)N[C@H](CCCCN)C(=O)N[C@@H](CC1CCCCC1)C(N)=O — IC50 (SIRT2; enzyme activity, inhibitor, fluorescence): 0.33 µM
NC(=O)c1ccc(N)nc1 — IC50 (NNMT (Homo sapiens, UniProt P40261); enzyme activity, inhibitor): 6.31 µM
O=C(Cc1ccccc1)N[C@H](C(=O)O)[C@@H]1N=C(C(=O)O)C(CS[C@H](Cc2ccccc2)C(=O)O)CS1 (stereo partly drawn) — IC50 (blaNDM-1; enzyme activity, inhibitor, absorbance): > 100 µM
COCCCC1CCCCN1C(=O)Oc1ccc([N+](=O)[O-])cc1 (stereo not drawn) — IC50 (Prolyl endopeptidase (Mus musculus, UniProt Q9QUR6); enzyme activity, inhibitor, fluorescence): > 100 µM
O=C1NC2(CC2)COc2ncc(F)cc2[C@H]2COCCN2c2ccn3ncc1c3n2 — serum LDH activity (Sprague-Dawley rat, male, serum; oral, 20 mg/kg/day, end of recovery, 4-week subacute toxicity): 1024 ± 212 U/L
CC[C@H](C)[C@H](NC(=O)[C@H](CCC(=O)O)NC(=O)[C@H](C)NC(=O)[C@@H](NC(=O)[C@H](Cc1c[nH]cn1)NC(=O)[C@H]1CCC[C@@H]1NC(=O)[C@H](CCC(=O)O)NC(=O)[C@H](C)NC(=O)[C@H]1CCC[C@@H]1NC(=O)[C@H](CC(C)C)NC(=O)[C@H](Cc1c[nH]cn1)NC(=O)[C@H](Cc1c[nH]cn1)NC(=O)[C@H]1CCC[C@@H]1NC(=O)[C@H](Cc1ccccc1)NC(=O)[C@H](Cc1ccccc1)NC(=O)[C@H](CCCNC(=N)N)NC(=O)[C@H](CCCNC(=N)N)NC(=O)[C@H](CCCNC(=N)N)NC(=O)[C@H](CC(C)C)NC(=O)[C@H](CC(=O)O)NC(=O)[C@H](CCC(N)=O)NC(=O)[C@@H](NC(=O)[C@H](CO)NC(=O)[C@H](CCCCN)NC(=O)CNC(=O)[C@H](CCCCN)NC(=O)[C@H](CC(=O)O)NC(=O)[C@H](Cc1c[nH]cn1)NC(=O)[C@H](CC(C)C)NC(=O)[C@H](CC(C)C)NC(=O)[C@H](CCC(N)=O)NC(=O)[C@H](Cc1c[nH]cn1)NC(=O)[C@H](CCC(=O)O)NC(=O)[C@H](CO)NC(=O)[C@@H](NC(=O)[C@H](C)N)C(C)C)[C@@H](C)CC)[C@@H](C)O)C(N)=O — IC50 (PTH1R (Homo sapiens, UniProt Q03431); ligand displacement, radioligand; cell membranes): 0.011 µM
CC(C)CNC(P(=O)(O)O)P(=O)(O)O — IC50 (polyphosphate kinase 2 (Cytophaga hutchinsonii, UniProt A0A6N4SMB5)): > 1000 µM
Cc1ccc2c(n1)c(-c1cccc(S(C)(=O)=O)c1)c(C)n2C/C(F)=C/CN — IC50 (MAOA (Homo sapiens, UniProt P21397); enzyme activity, inhibitor, fluorescence): > 30 µM
Cc1ccsc1CNc1ccccc1OC1CC(=O)N1 (stereo not drawn) — IC50 (Uncharacterized hydrolase SAUSA300_2518 (Staphylococcus aureus, UniProt Q2FDS6); enzyme activity, inhibitor): > 50 µM
CC(C)C[C@@H](N)C(=O)NCC(=O)N[C@H](C)C(=O)N[C@H](CO)C(=O)N[C@H](Cc1c[nH]c2ccccc12)C(=O)N[C@H](Cc1c[nH]cn1)C(=O)N[C@H](CCCNC(=N)N)C(=O)N1CCC[C@@H]1C(=O)N[C@H](CC(=O)O)C(=O)N[C@H](CCCCN)C(=O)N[C@H](CCCCN)C(=O)N[C@H](CCCNC(=N)N)C(=O)NCCCCCC(=O)N[C@H](CCCCN)C(=O)N[C@H](CCCNC(=N)N)C(=O)N[C@H](CCCCN)C(=O)N[C@H](CS)C(=O)N[C@@H](C(=O)N[C@H](CCCNC(=N)N)C(=O)N1CCC[C@@H]1C(=O)N[C@H](CC(N)=O)C(=O)N[C@H](CC(N)=O)C(=O)N[C@H](CC(N)=O)C(=O)N[C@@H](C(N)=O)[C@H](C)O)[C@H](C)O — IC50 (CXCR4 (Homo sapiens, UniProt P61073); antagonist; concentration not given): 0.0428 µM
CNc1nc(N[C@@H](CCO)c2ccccc2Cl)nc(N2CCN(C(=O)CCl)C(C(=O)NCC3CCNC3=O)C2)n1 (stereo partly drawn) — IC50 (Caspase-6 (CASP6, Homo sapiens, UniProt P55212); enzyme activity, inhibitor): > 50 µM
Cc1cc(-c2ccc3ccccc3c2)nnc1NCCN1CCN(C)CC1 — IC50 (SLC47A2 (Homo sapiens, UniProt Q86VL8); transport, inhibitor): 1.9 µM
COC(=O)Cc1cc2c(cc1C(=O)c1cccc(Br)c1)OCO2 — IC50 (Gria1 (Rattus norvegicus, UniProt P19490); ion current, patch clamp): 5.43 µM
CNC(=S)NCCCC[C@H](NC(=O)CCc1ccccc1)C(=O)N[C@@H](CCCNC(=N)N)C(=O)N[C@@H](CC1CCCCC1)C(=O)N[C@H](CCCCN)C(=O)N[C@@H](CC1CCCCC1)C(N)=O — IC50 (SIRT2; enzyme activity, inhibitor, fluorescence): 0.44 µM
O=C(CCCOc1cccc(Br)c1)N[C@H]1CCSC1=O — IC50 (lasR; reporter gene, antagonist; Escherichia coli, JLD271 with LasR plasmid; together with: OdDHL 2 nM): no inhibition
CN(C(=O)c1ccn2ncc(-c3ccc(C(N)=O)cc3)c2c1)c1ccc(C#N)cn1 — IC50 (Phosphatidylinositol 4-kinase (Cryptosporidium parvum, UniProt Q5CVD3, S871L); inhibitor): 0.0085 ± 0.0002 µM
CC(C)C[C@@H]1NC(=O)[C@@H]2CCCN2C(=O)[C@@H](CS)NC(=O)[C@H](Cc2ccc(O)cc2)NC(=O)[C@@H](CCCNC(=N)N)NC(=O)[C@@H](CCCNC(=N)N)NC(=O)C(C)(C)NC(=O)[C@@H]2CCCN2C1=O — IC50 (blaNDM-1; enzyme activity, inhibitor, absorbance): 1.84 µM
CCN(N=Cc1cnc2ccc(Br)cn12)S(=O)(=O)c1cc([N+](=O)[O-])ccc1C — IC50 (PIK3CA (Homo sapiens, UniProt P42336, H855E); enzyme activity, inhibitor): 0.166 µM
COc1cc(CNc2ccc(C(=O)C=C(O)C(F)(F)C(F)(F)F)cn2)cc(OC)c1OC — IC50 (Formate-nitrite transporter; L-lactate transport, inhibitor, fluorescence; yeast; pH 6.8, together with: L-lactate 1 mM): 0.212 ± 0.034 µM
C#CCNC(=O)c1ccc(S(=O)(=O)N[C@@H](CCCCNC(=O)c2cncc(OS(=O)(=O)F)c2)C(=O)N[C@@H](CCCNC(=N)N)C(=O)NC2CCC2)cc1 — IC50 (SIRT5; inhibitor, fluorogenic; pre-incubation 16 h, together with: NAD+ 500 µM): 9 ± 3.1 µM
CSCC[C@@H]1NC(=O)[C@H](Cc2ccccc2)NC(=O)[C@@H](NC(=O)[C@@H](N)CCCCN)CSC(=O)[C@H](C(C)C)NC(=O)[C@H](Cc2ccccc2)NC1=O — IC50 (Histidine kinase AgrC (Listeria monocytogenes, UniProt A8E0G3); agr signalling): 0.233 µM
C#CCNC(=O)c1ccc([P+](CCCC(=O)N[C@@H](CCCCNC(=O)c2cncc(OS(=O)(=O)F)c2)C(=O)N[C@@H](CCCNC(=N)N)C(=O)NC2CCC2)(c2ccccc2)c2ccccc2)cc1 — IC50 (SIRT5; inhibitor, fluorogenic; pre-incubation 16 h, together with: NAD+ 500 µM): 6.2 ± 0.4 µM
CCN(CCCCOc1ccc(CCC(=O)N2CCC(Cc3ccccc3)CC2)cc1OC)Cc1ccccc1 — IC50 (Prothrombin (F2, Homo sapiens, UniProt P00734); enzyme activity, inhibitor): > 100 µM
C#CCNC(=O)c1ccc(S(=O)(=O)N[C@@H](CCCCNC(=O)c2cncc(OS(=O)(=O)F)c2)C(=O)N[C@@H](Cc2c[nH]c3ccccc23)C(=O)NC2CCC2)cc1 — IC50 (SIRT5; inhibitor, fluorogenic; 4 h preincubation, His-tagged enzyme 150 nM, together with: NAD+ 500 µM): 40 ± 14 µM
O=C(O)C(F)(OC(F)(F)C(F)(F)C(F)(F)F)C(F)(F)F (stereo not drawn) — IC50 (FABP4 (Homo sapiens, UniProt P15090); ligand displacement, fluorescence; pH 7.5): 47.3 µM
Cc1ccc(N2CC3CC(C2)N3C)cc1C(=O)NC1(c2ccc3c4c(cccc24)C(=O)N3C)CC1 — IC50 (CYP2C19 (Homo sapiens, UniProt P33261); enzyme activity, inhibitor): 29.9 µM
O=C(C=C(O)C(F)(F)C(F)(F)F)c1ccc(NCc2ccccc2)nc1 — IC50 (Formate-nitrite transporter; L-lactate transport, inhibitor, fluorescence; yeast; pH 6.8, together with: L-lactate 1 mM): 0.066 ± 0.011 µM
O=C(CCC(=O)NC(CCCCNC(=S)NCCc1noc(=O)[nH]1)C(=O)NC(Cc1c[nH]c2ccccc12)C(=O)NC1CCC1)NCCOCCOCCCCCCCl (stereo not drawn) — IC50 (SIRT5; enzyme activity, inhibitor): 0.152 ± 0.04 µM
O=C(c1cc(Cc2n[nH]c(=O)c3ccccc23)ccc1F)N1CC(CNC2CC2)C1 — IC50 (PARP15 (Homo sapiens, UniProt Q460N3); enzyme activity, inhibitor): > 10 µM
